Measurements gathered from unrelated publications.
Each line is one published result; not all experiments were run side by side. ± marks the error that the study gave.
Organism: Staphylococcus aureus

The MBEC of `CCCCCCCCCCCCCCCCNC(=N)NC(=N)NCCCCCCNC(=O)[C@H]1NC(=O)[C@H]2NC(=O)[C@H](NC(=O)[C@@H]3NC(=O)[C@H](CC(N)=O)NC(=O)[C@H](NC(=O)[C@@H](CC(C)C)NC)[C@H](O)c4ccc(c(Cl)c4)Oc4cc3cc(c4O[C@@H]3O[C@H](CO)[C@@H](O)[C@H](O)[C@H]3O[C@H]3C[C@](C)(N)[C@H](O)[C@H](C)O3)Oc3ccc(cc3Cl)[C@H]2O)c2ccc(O)c(c2)-c2c(O)cc(O)cc21` is reported as greater than 128 µM (29213; biofilm).
Under “log reduction in CFU”, `CC[C@H](C)[C@H](NC(=O)CNC(=O)CNC(=O)[C@H](CO)NC(=O)[C@@H](NC(=O)[C@H](CCCCN)NC(=O)[C@H](CO)NC(=O)[C@@H](N)CC(C)C)[C@@H](C)CC)C(=O)NCC(=O)N1CCC[C@H]1C(=O)N[C@@H](CC(C)C)C(=O)N[C@H](C(=O)N[C@H](C(=O)N1CCC[C@H]1C(=O)N[C@H](C(N)=O)C(C)C)[C@@H](C)CC)C(C)C` is recorded as 2 log (ATCC 25923; MIC, 2 h).
For `c1ccc(CN2CCOCCOCCN(CCCCCCCCCCCCN3CCOCCOCCN(CCCCCCCCCCCCN4CCOCCOCCN(Cc5ccccc5)CCOCCOCC4)CCOCCOCC3)CCOCCOCC2)cc1`, the fold enhancement was 8 fold (ethidium bromide activity; 1199B; half MIC, together with: ethidium bromide; baseline: ethidium bromide alone).
`C[C@@H](c1ccccc1)N(CC(N)=O)C(=O)CN(C(=O)CN(CCCCN)C(=O)CN(C(=O)CN(C(=O)CN(CCCCN)C(=O)CN(C(=O)CN(C(=O)CN(CCCCN)C(=O)CN(C(=O)CN(C(=O)CNCCCCN)[C@@H](C)c1ccccc1)[C@@H](C)c1ccccc1)[C@@H](C)c1ccccc1)[C@@H](C)c1ccccc1)[C@@H](C)c1ccccc1)[C@@H](C)c1ccccc1)[C@@H](C)c1ccccc1` has a bacterial load of 49000 CFU/mL (USA300 LAC, mouse, abscess model; maximum tolerated dose, day three).
For `S=C(NCc1ccccn1)NCc1ccccn1`, the inhibition zone was 12 mm (microbial growth, well diffusion; 10 µg/mL).
For `CC[C@H](C)[C@H](NC(=O)[C@H](CCCCN)NC(=O)[C@H](CCCCN)NC(=O)[C@H](Cc1c[nH]c2ccccc12)NC(=O)[C@H](CC(N)=O)NC(=O)[C@@H](N)C(C)C)C(=O)N[C@@H](CC(C)C)C(=O)NCC(=O)N[C@@H](CCCCN)C(=O)N[C@H](C(=O)N[C@H](C(=O)N[C@@H](CCCCN)C(=O)N[C@H](C(=O)N[C@H](C(=O)N[C@@H](CCCCN)C(N)=O)C(C)C)C(C)C)[C@@H](C)CC)[C@@H](C)CC`, the LC99.9 was 3.7 µM (MSSA RN 4220, RPMI medium; 24 h, 37 °C).
`CC(=NNC(=N)N)c1nnn(-c2ccc(C#CC3(O)CCCCC3)cc2)c1C` gave a selectivity index of 17.5 (WI-38, MRSA NRS384 USA300; baseline: WI-38 IC50 over MIC).
The growth inhibition of `C[C@H](NC(=O)[C@H](CCCCN)NC(=O)[C@H](CCCCN)NC(=O)[C@H](CCC(=O)O)NC(=O)[C@@H]1CCCN1)C(=O)N[C@@H](CCCCN)C(=O)N[C@@H](CCCCN)C(=O)N[C@@H](CCCCN)C(=O)O` is reported as 29.4% (OD600; methicillin-resistant DMST 20646; concentration not given, 18 to 22 h, 37 °C, unheated).
For `ONCc1ccc(F)cc1`, the biofilm reduction was roughly 50% (MIC, 72 h).
For `CC[C@H](C)[C@H](NC(=O)[C@H](CCCCN)NC(=O)[C@H](CCCCN)NC(=O)[C@H](CC(C)C)NC(=O)[C@H](CCCCN)NC(=O)[C@H](CCC(=O)O)NC(=O)[C@H](CCCCN)NC(=O)[C@@H](NC(=O)[C@H](CCCCN)NC(=O)[C@H](CC(N)=O)NC(=O)[C@H](CCCNC(=N)N)NC(=O)[C@H](Cc1ccccc1)NC(=O)[C@H](CCCCN)NC(=O)[C@H](CCCNC(=N)N)NC(=O)[C@H](CC(C)C)NC(=O)[C@H](CCCNC(=N)N)NC(=O)[C@H](CCCCN)NC(=O)[C@H](CCCNC(=N)N)NC(=O)[C@H](CC(C)C)NC(=O)[C@@H](N)CCCNC(=N)N)[C@@H](C)CC)C(=O)NCC(=O)N[C@@H](CCC(N)=O)C(=O)N[C@@H](CCCCN)C(=O)N[C@H](C(=O)N[C@@H](CCC(N)=O)C(=O)NCC(=O)N[C@@H](Cc1ccccc1)C(=O)N[C@H](C(=O)N1CCC[C@H]1C(=O)N[C@@H](CCCCN)C(=O)N[C@@H](CC(C)C)C(=O)N[C@@H](CCC(N)=O)C(=O)N1CCC[C@H]1C(=O)N[C@@H](CO)C(=O)N[C@@H](CCCCN)C(=O)N[C@@H](CCC(N)=O)C(=O)N[C@@H](CO)C(=O)O)C(C)C)[C@@H](C)CC`, the lethal concentration was 2.29 µM (inhibition zone; penicillin-resistant P1383).
For `O=[N+]([O-])[O-].S=c1[nH]cnc2[nH]cnc12.[Ag+].c1ccc(P(c2ccccc2)c2ccccc2)cc1.c1ccc(P(c2ccccc2)c2ccccc2)cc1`, “inhibition zone diameter” read 12 mm (MTCC 740, DMSO; 0.1 mL of 50 mg/mL in 8 mm well, 18 to 24 h).
`CC(C)C[C@H](NC(=O)[C@H](CC(C)C)NC(=O)[C@H](CCCCN)NC(=O)[C@H](CC(C)C)NC(=O)[C@H](CC(C)C)NC(=O)[C@H](CCCCN)NC(=O)[C@H](CCCCN)NC(=O)[C@H](CC(C)C)NC(=O)[C@H](CC(C)C)NC(=O)[C@H](CCCCN)NC(=O)[C@H](CCCCN)NC(=O)[C@H](CC(C)C)NC(=O)[C@H](CC(C)C)NC(=O)[C@H](CCCCN)NC(=O)[C@@H](N)CC(C)C)C(N)=O` gave an LC99.9 of 3.7 µM (MRSA AMC 201, RPMI medium; 24 h, 37 °C).
The biofilm eradication of `C=Cc1cc(OC)c2c(c1)c(=O)oc1c2cc(OC)c2c(O)ccc([C@@H]3O[C@H](C)[C@H](O)[C@@](C)(O)[C@H]3O)c21` is reported as 88% (crystal violet; MRSA USA300; 2 × MIC, 24 h).
`O=C(c1ccccc1O)c1[nH]c(Cl)c(Cl)c1-n1c(C(=O)c2ccccc2O)cc(Cl)c1Cl`: “intracellular pH decrease” 0.3 pH units (BCECF-AM; NCTC 8325; 1 × MIC, 10 min).
The MBC of `CC(C)C1=C(OC(=O)Cc2ccccc2)C(=O)C2=C(C=C[C@H]3C(C)(C)CCC[C@]23C)C1=O` is reported as less than 72.2 µM (ATCC 25923, MSSA).
With `CCCCCCc1ccc(Oc2ccccc2C#N)c(O)c1` the post-antibiotic effect was 1.03 ± 0.17 h (RN4220; 4 x MIC, 1 h exposure, 37 °C).

A few entries again:
The MBEC of `CCCCCCCCCCCCCCCCNC(=N)NC(=N)NCCCCCCNC(=O)[C@H]1NC(=O)[C@H]2NC(=O)[C@H](NC(=O)[C@@H]3NC(=O)[C@H](CC(N)=O)NC(=O)[C@H](NC(=O)[C@@H](CC(C)C)NC)[C@H](O)c4ccc(c(Cl)c4)Oc4cc3cc(c4O[C@@H]3O[C@H](CO)[C@@H](O)[C@H](O)[C@H]3O[C@H]3C[C@](C)(N)[C@H](O)[C@H](C)O3)Oc3ccc(cc3Cl)[C@H]2O)c2ccc(O)c(c2)-c2c(O)cc(O)cc21` is reported as greater than 128 µM (29213; biofilm).
Under “log reduction in CFU”, `CC[C@H](C)[C@H](NC(=O)CNC(=O)CNC(=O)[C@H](CO)NC(=O)[C@@H](NC(=O)[C@H](CCCCN)NC(=O)[C@H](CO)NC(=O)[C@@H](N)CC(C)C)[C@@H](C)CC)C(=O)NCC(=O)N1CCC[C@H]1C(=O)N[C@@H](CC(C)C)C(=O)N[C@H](C(=O)N[C@H](C(=O)N1CCC[C@H]1C(=O)N[C@H](C(N)=O)C(C)C)[C@@H](C)CC)C(C)C` is recorded as 2 log (ATCC 25923; MIC, 2 h).
For `c1ccc(CN2CCOCCOCCN(CCCCCCCCCCCCN3CCOCCOCCN(CCCCCCCCCCCCN4CCOCCOCCN(Cc5ccccc5)CCOCCOCC4)CCOCCOCC3)CCOCCOCC2)cc1`, the fold enhancement was 8 fold (ethidium bromide activity; 1199B; half MIC, together with: ethidium bromide; baseline: ethidium bromide alone).
